Measured values collected from several papers.
Every numbered part comes from another study and shows a few of its results, in no order. Changes are numbered by the printed parent chain.

Sample 1
Target: CCNB3, cyclin fold, Cln2 fusion (human)
Technique: yeast growth competition, sequencing
Sample: yeast
Notes: weak parent motif
Baseline: not given
Direction: higher = stronger binding
Starting sequence: ORC1 docking peptide (human); PRARKRLELGNLG; partner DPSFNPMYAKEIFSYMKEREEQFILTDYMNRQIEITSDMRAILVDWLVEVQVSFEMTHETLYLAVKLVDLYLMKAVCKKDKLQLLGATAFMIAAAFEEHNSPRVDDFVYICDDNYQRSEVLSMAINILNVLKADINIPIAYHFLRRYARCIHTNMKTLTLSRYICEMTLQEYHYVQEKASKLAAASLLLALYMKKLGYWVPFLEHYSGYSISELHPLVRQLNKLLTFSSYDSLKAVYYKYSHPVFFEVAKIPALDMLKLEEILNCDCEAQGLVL
Change	normalised enrichment score
PRARKRIELGNLG [L7I]	0.165
PRGRKRLELGNLG [A3G]	-0.443
PEARKRLELGNLG [R2E]	0.527
TRARKRLELGNLG [P1T]	0.123
PRARKRLHLGNLG [E8H]	-0.352
GRARKRLELGNLG [P1G]	-0.641
PRARKCLELGNLG [R6C]	0.275
PRARKRLELGCLG [N11C]	0.141
PRARKRLECGNLG [L9C]	0.271
PRARKREELGNLG [L7E]	0.36
PRARKRLELWNLG [G10W]	0.753
PRARQRLELGNLG [K5Q]	-0.0249
PRARKRLELGNCG [L12C]	0.308

Sample 2
Target: Interferon regulatory factor 7, full length, phosphomimetic (IRF7, Homo sapiens, UniProt Q92985, residues 1-503, S471D/S472D/S475D/S476D/S477D/S483D/S484D/S487D)
Technique: protein-binding microarray
Form: double-stranded DNA, one strand shown
Sample: in vitro
Tested at: 2200 nM top
Notes: 60-bp whole probe
Together with: salmon DNA 0.4 mg/ml
Baseline: random background probes
Direction: higher = stronger binding
Constant ends, left off below: GCCTAGCAC … GTCTTGATTCGCTTGACGCTGCTG
Residues (chain): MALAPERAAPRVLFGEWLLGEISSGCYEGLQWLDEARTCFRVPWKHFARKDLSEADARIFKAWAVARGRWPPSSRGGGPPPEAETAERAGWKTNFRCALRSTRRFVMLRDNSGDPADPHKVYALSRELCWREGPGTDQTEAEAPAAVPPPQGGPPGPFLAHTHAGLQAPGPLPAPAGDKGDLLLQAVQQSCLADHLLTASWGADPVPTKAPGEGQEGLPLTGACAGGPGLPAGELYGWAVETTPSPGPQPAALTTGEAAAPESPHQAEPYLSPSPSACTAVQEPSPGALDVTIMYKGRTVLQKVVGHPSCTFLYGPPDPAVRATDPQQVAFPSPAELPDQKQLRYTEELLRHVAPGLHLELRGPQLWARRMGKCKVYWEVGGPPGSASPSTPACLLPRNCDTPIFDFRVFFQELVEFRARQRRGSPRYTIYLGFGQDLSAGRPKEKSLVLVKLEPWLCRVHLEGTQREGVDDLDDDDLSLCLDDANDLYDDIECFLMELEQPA
Strand	fitted relative affinity [z-score]
GACGGACTGGACACTGGGGATGTGCTA	-0.754
ATAGATTTCGGGTATCGATTAGTGCTA	2.96
GACGGTCTTGGTTTCGGGACGTGCTAG	2.82
TTAGACATCAGTATCGATTAGTGCTAG	0.142
GACGGTATCGGTTTCGGTACGTGCTAG	5.09
TCACCTTTGCCTCCAGGACTGTGCTAG	1.49
GACGCACTGCTTCTCCTGACGTGCTAG	0.931
TCAAATTCTCATTTCCAACTGTGCTAG	0.962
TTAGGACTTCTTCTCCTTTAGTGCTAG	0.816
GACGATTTCGGGTTTCGTGACGTGCTA	4.97
GTTGAGTTCTGTTGCAAAGGGTGCTAG	0.517
TTAGATATCAGTCTCGATTAGTGCTAG	0.269
TTAGGTTTCCTACTGATTTAGTGCTAG	1.04
TTCGATTTCGGGTTTCGATTAGTGCTA	7.36
TCATTTCCATTTTCTAAAACTGTGCTA	3.88

Sample 3
Target: ABI1, truncated, D143A, DHFR fusion (Arabidopsis thaliana)
Technique: DHFR PCA, deep sequencing
Sample: yeast
Notes: methotrexate growth selection, single substitutions
Together with: (+)-ABA 1.4 µM
Baseline: wild-type fitted maximum
Direction: higher = stronger binding
Starting sequence: PYL1, truncated, DHFR fusion (Arabidopsis thaliana); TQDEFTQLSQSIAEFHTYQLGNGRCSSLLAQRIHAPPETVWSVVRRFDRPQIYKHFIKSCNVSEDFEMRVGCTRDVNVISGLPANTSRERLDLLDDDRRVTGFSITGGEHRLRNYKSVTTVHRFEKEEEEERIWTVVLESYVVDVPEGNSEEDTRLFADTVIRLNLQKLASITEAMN
Change	relative binding score
S87L	9.62%
N114S	7.29%
R24C	25.3%
T86P	-5.7%
V137W	2.33%
L91Q	6.39%
R111V	-3.11%
I162Y	-1.6%
K168E	-3.86%
P146Y	-22.4%

Further values, each from its own experiment
Molecule	target	test	test system	setting	scale	endpoint	result
PhoQ, residues 284 288 289 292 302 303 SSTLLI	PhoP, residues 12 14 15 18 19 NMSSL (Escherichia coli, UniProt P23836)	Sort-seq, item: YFP reporter	E. coli	PhoQ-PhoP variant library, together with: 10 µM Mg2+	baseline: high Mg2+ state, higher = stronger signaling	fold induction	16.9
